Published values collected from several papers.
A part holds a random share of what one study measured.
Sequence of UniProt Q9NQU5 (whole entry, looked up): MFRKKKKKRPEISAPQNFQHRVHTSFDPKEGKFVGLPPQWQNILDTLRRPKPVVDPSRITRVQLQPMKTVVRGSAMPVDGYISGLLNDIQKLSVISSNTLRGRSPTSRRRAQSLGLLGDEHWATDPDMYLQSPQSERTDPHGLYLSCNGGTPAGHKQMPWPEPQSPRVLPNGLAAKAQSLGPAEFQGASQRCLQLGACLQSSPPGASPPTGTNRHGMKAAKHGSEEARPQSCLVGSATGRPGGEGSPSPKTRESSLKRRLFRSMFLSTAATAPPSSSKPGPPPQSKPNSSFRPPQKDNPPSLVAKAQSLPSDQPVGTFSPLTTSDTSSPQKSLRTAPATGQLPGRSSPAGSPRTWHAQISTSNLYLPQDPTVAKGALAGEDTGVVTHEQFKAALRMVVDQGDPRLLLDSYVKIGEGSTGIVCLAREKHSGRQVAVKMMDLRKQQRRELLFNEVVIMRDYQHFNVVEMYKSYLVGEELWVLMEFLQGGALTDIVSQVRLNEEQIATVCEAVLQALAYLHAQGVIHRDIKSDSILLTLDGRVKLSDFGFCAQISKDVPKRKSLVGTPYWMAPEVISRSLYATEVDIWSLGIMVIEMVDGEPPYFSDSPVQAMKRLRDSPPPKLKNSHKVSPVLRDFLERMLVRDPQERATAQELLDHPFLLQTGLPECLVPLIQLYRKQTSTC
Sequence of UniProt Q04771 (whole entry, looked up): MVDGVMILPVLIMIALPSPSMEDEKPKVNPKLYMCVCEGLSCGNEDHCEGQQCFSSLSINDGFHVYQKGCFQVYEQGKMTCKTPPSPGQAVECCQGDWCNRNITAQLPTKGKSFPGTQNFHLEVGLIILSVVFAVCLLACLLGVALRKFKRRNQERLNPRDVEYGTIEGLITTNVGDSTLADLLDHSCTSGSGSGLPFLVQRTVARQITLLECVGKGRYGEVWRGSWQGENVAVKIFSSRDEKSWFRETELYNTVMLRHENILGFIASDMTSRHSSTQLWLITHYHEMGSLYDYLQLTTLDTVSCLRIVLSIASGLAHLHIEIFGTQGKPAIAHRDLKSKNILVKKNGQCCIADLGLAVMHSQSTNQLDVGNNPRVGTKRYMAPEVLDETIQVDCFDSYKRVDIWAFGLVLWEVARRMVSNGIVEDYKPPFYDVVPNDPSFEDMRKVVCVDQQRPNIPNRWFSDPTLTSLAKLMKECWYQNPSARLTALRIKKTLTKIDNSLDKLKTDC
Sequence of UniProt P42336 (whole entry, looked up): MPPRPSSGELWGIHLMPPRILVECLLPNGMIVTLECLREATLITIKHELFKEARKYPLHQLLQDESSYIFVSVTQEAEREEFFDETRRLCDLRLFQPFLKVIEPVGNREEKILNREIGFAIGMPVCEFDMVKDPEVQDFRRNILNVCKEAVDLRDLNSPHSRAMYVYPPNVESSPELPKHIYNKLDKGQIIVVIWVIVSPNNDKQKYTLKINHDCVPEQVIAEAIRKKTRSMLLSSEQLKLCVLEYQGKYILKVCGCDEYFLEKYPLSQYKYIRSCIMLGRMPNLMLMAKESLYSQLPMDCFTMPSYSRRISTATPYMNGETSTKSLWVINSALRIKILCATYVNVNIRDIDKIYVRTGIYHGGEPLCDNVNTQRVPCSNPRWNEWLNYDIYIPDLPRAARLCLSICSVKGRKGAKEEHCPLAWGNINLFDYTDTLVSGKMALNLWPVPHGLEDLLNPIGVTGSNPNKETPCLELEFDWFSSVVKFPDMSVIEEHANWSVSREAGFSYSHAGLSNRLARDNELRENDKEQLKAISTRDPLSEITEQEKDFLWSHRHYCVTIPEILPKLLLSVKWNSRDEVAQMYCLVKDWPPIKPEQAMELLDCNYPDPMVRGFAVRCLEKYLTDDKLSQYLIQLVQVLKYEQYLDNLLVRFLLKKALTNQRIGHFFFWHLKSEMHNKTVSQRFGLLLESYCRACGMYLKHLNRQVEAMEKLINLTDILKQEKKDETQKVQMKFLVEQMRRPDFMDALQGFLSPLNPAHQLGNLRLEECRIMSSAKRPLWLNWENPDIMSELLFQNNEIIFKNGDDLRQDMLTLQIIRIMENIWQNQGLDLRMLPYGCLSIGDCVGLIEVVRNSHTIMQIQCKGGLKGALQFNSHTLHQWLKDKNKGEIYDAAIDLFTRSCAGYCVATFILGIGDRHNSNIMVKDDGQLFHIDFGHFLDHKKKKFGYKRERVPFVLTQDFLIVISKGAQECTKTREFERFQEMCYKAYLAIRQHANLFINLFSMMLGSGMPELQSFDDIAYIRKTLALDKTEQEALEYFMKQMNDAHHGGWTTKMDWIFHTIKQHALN
Sequence of UniProt Q9HBH9 (whole entry, looked up): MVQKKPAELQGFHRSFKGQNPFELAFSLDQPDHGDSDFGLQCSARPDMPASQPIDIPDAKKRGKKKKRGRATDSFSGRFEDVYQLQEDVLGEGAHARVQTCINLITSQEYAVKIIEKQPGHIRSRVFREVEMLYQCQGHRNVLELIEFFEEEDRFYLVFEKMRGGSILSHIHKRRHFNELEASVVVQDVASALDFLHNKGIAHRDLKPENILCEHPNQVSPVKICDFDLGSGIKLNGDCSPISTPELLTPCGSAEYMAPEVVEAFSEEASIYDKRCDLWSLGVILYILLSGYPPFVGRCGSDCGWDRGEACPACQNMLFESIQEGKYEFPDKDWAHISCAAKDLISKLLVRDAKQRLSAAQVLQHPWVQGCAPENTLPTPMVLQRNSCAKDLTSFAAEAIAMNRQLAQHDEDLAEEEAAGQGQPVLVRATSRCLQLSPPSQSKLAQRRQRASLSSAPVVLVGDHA
Sequence of UniProt Q6P3R8 (whole entry, looked up): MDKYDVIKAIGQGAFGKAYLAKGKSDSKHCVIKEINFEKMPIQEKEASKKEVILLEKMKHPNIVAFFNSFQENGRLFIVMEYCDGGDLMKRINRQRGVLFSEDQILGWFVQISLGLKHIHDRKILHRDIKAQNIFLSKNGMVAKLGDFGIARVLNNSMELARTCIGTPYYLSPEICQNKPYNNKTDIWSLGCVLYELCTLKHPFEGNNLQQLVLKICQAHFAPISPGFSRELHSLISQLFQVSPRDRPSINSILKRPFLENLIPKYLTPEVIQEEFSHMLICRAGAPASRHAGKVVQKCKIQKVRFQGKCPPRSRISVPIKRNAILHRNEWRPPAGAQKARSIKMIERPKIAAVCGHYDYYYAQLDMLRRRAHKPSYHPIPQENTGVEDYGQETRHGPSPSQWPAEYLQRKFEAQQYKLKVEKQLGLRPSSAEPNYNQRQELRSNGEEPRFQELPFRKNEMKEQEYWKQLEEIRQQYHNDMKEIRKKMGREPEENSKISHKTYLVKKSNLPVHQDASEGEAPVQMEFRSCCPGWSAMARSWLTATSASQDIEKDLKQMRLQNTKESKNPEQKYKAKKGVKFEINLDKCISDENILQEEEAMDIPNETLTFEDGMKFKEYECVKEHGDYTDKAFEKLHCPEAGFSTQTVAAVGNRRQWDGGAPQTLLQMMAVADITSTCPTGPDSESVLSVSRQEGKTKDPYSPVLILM
Sequence of UniProt P04629 (whole entry, looked up): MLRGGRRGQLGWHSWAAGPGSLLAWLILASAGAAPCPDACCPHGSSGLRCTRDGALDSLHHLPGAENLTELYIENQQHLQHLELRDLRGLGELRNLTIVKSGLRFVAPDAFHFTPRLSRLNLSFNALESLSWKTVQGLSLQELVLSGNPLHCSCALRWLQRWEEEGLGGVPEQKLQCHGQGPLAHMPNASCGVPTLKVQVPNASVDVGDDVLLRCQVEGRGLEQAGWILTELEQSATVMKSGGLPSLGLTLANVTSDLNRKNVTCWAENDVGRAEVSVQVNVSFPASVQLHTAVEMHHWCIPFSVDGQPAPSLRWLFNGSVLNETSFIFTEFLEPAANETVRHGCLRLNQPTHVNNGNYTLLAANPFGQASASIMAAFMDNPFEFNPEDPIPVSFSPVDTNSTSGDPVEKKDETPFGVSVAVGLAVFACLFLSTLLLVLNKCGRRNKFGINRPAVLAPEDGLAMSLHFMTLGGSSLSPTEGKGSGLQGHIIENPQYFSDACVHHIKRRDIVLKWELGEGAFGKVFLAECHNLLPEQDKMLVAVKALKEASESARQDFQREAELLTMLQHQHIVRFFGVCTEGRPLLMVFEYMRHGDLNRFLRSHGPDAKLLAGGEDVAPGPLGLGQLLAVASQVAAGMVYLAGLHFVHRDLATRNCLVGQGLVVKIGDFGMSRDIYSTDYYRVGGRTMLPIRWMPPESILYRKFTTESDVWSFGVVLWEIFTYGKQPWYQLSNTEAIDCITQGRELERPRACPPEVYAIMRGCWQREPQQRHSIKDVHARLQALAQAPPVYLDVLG
Sequence of UniProt O75914 (whole entry, looked up): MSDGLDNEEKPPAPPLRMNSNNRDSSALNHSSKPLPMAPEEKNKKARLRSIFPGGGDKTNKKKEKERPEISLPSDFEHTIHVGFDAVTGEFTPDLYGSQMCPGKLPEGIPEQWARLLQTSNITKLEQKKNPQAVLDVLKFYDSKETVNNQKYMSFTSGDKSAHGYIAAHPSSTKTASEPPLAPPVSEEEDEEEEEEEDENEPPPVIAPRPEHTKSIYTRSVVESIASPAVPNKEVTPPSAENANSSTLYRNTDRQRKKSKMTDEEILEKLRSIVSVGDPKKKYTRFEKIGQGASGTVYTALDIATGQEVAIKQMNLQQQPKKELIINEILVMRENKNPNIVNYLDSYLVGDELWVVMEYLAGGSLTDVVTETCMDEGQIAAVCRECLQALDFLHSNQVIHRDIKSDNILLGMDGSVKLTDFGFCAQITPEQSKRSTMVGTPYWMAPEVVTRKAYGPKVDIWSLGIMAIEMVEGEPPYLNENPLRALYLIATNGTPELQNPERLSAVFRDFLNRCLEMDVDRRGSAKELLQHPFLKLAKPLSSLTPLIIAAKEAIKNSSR

Sample 1
Cell line: mouse MPNST tumor cells
Technique: high-content immunofluorescence imaging
Measured: nuclear SOX9
Concentration: 10 µM
Time: 12 h
Setting: mean of 2 replicates
Reference: DMSO control
Reading: higher = more nuclear SOX9
Under “nuclear SOX9 intensity”, `C[N+](C)(C)CCCCCNCC12CC3CC(CC(C3)C1)C2` is recorded as 112 % of DMSO.
Under “nuclear SOX9 intensity”, `CCc1cccc(CC)c1NC(=O)CN(CC(=O)O)CC(=O)O` is recorded as 99.2 % of DMSO.
For `NS(=O)(=O)c1cc2c(cc1Cl)NC(C1CC3C=CC1C3)NS2(=O)=O` (centres unmarked), “nuclear SOX9 intensity” read 98.3 % of DMSO.
For `CCCCOc1c(C(=O)c2c(F)cc(C)cc2F)c[nH]c2nncc1-2`, “nuclear SOX9 intensity” read 107 % of DMSO.
Under “nuclear SOX9 intensity”, `O=c1[nH]c2cc(Cl)ccc2c(O)c1-c1cccc(Oc2ccccc2)c1` is recorded as 100 % of DMSO.

Sample 2
Species: mouse
Matrix: microsomes or S9
Concentration: 2 µM
Time: 0.5 h
The remaining compound of `C[C@H]1CCCC(=O)CCCCCc2cc(OCc3ccccc3)cc(O)c2C(=O)O1` is reported as 22.3%.
`OC(Cc1c[nH]c2ccccc12)(c1ccccc1)c1ccccc1` gave a remaining compound of 46%.
`Cc1c(NC(=O)c2cnn3cc(Br)cnc23)c(=O)n(-c2ccccc2)n1C` gave a remaining compound of 84%.
For `CCO[C@H]1CN(Cc2cccc(F)c2OC)C[C@@H]1O`, the remaining compound was 42.7%.
With `O=c1ccc(-c2ccc(S(=O)(=O)Nc3cc(F)ccc3F)o2)n[nH]1` the remaining compound was 52.5%.
For `OC(Cn1ccnc1)c1ccc(Cl)cc1Cl` (centres unmarked), the remaining compound was 70.5%.
For `CCCOc1ccc2c(c1)C(O)CC1(CCNCC1)O2` (centres unmarked), the remaining compound was 66.8%.
For `CCOC(=O)c1[nH]c(C)c(CN(Cc2ccccc2)C(=O)CCC(=O)O)c1C`, the remaining compound was 2.3%.
With `Fc1ccc(-c2n[nH]cc2Cn2cnc(-c3ccccc3)c2-c2ncc[nH]2)cc1` the remaining compound was 0.308%.

Sample 3
Compound: Cc1c(C(=O)O)cc(-c2ccc(C3CCNCC3)cc2)c2ccc(-c3ccc(C(F)(F)F)cc3)cc12
Technique: competition with immobilised ligand
Concentration: 1 µM
The remaining binding was 100% (Activin receptor type-1 (ACVR1, Homo sapiens, UniProt Q04771); cell-free assay).
The remaining binding was 91% (Rhodopsin kinase GRK7 (GRK7, Homo sapiens, UniProt Q8WTQ7); binding).
For Tyrosine-protein kinase CSK (CSK, Homo sapiens, UniProt P41240); cell-free assay: remaining binding read 100%.
For TGF-beta receptor type-2 (TGFBR2, Homo sapiens, UniProt P37173); cell-free assay: remaining binding read 100%.
It gave 100% for remaining binding (Serine/threonine-protein kinase PAK 3 (PAK3, Homo sapiens, UniProt O75914); cell-free assay).
Tyrosine-protein kinase ABL1, non-phosphorylated (ABL1, Homo sapiens, UniProt P00519, F317L); binding — remaining binding: 100%.
For Phosphatidylinositol 4,5-bisphosphate 3-kinase catalytic subunit alpha isoform (PIK3CA, Homo sapiens, UniProt P42336); cell-free assay: remaining binding read 100%.
The remaining binding was 100% (Peripheral plasma membrane protein CASK (CASK, Homo sapiens, UniProt O14936); cell-free assay).
It gave 100% for remaining binding (Tyrosine-protein kinase ITK/TSK (ITK, Homo sapiens, UniProt Q08881); cell-free assay).
Tyrosine-protein kinase ABL1, phosphorylated (ABL1, Homo sapiens, UniProt P00519, Q252H); binding — remaining binding: 100%.
The remaining binding was 100% (MAP kinase-interacting serine/threonine-protein kinase 2 (MKNK2, Homo sapiens, UniProt Q9HBH9); binding).
It gave 100% for remaining binding (High affinity nerve growth factor receptor (NTRK1, Homo sapiens, UniProt P04629); cell-free assay).
It gave 100% for remaining binding (Serine/threonine-protein kinase PAK 6 (PAK6, Homo sapiens, UniProt Q9NQU5); cell-free assay).
Mitogen-activated protein kinase 4 (MAPK4, Homo sapiens, UniProt P31152); binding — remaining binding: 100%.
It gave 100% for remaining binding (Macrophage-stimulating protein receptor (MST1R, Homo sapiens, UniProt Q04912); cell-free assay).
Serine/threonine-protein kinase Nek5 (NEK5, Homo sapiens, UniProt Q6P3R8); binding — remaining binding: 100%.
Tyrosine-protein kinase ABL1, phosphorylated (ABL1, Homo sapiens, UniProt P00519, E255K); binding — remaining binding: 96%.
It gave 86% for remaining binding (Serine/threonine-protein kinase 36 (STK36, Homo sapiens, UniProt Q9NRP7); binding).

Sample 4
Compound: CCc1[nH]c(-c2ccc(OC)cc2)nc1-c1ccncc1
Effect on: enzyme activity
Action: inhibitor
Technique: radiometric
It gave > 30 µM for IC50 (Mitogen-activated protein kinase 13 (MAPK13, Homo sapiens, UniProt O15264)).
It gave > 30 µM for IC50 (Mitogen-activated protein kinase 11 (MAPK11, Homo sapiens, UniProt Q15759)).
It gave > 30 µM for IC50 (Mitogen-activated protein kinase 12 (MAPK12, Homo sapiens, UniProt P53778)).

Sample 5
Matrix: 1,9-decadiene/PBS
pH: 7.4
`CC(C)C[C@@H]1NC(=O)[C@H](Cc2cscn2)NC(=O)[C@H](CCC(=O)N2CCCC2)NC(=O)[C@H](CC(C)C)NC(=O)[C@@H](Cc2cscn2)NC(=O)[C@H](CC(C)C)NC(=O)[C@@H](CC(C)C)NC1=O` has a logD of -1.16.
With `CC(C)C[C@@H]1NC(=O)[C@H](CC(C)C)NC(=O)[C@@H](C(C)C)NC(=O)[C@H](C)NC(=O)[C@@H](Cc2cscn2)NC(=O)[C@H](C)NC(=O)[C@H](CCC(=O)N2CCCC2)NC1=O` the logD was -3.48.
With `CC(C)C[C@@H]1NC(=O)[C@H](CC(C)C)NC(=O)[C@H](CC(C)C)NC(=O)[C@H](C(C)C)NC(=O)[C@H](C(C)C)NC(=O)[C@H](Cc2cscn2)NC(=O)[C@H](C)NC1=O` the logD was -0.149.
